# Published values gathered from unrelated publications.
# Compare with care: the assays were run in different laboratories. “And” joins repeats or separate records; there may be more than shown. Numbers after ± are the reported error.
# Sequence of UniProt P45974 (whole entry, looked up): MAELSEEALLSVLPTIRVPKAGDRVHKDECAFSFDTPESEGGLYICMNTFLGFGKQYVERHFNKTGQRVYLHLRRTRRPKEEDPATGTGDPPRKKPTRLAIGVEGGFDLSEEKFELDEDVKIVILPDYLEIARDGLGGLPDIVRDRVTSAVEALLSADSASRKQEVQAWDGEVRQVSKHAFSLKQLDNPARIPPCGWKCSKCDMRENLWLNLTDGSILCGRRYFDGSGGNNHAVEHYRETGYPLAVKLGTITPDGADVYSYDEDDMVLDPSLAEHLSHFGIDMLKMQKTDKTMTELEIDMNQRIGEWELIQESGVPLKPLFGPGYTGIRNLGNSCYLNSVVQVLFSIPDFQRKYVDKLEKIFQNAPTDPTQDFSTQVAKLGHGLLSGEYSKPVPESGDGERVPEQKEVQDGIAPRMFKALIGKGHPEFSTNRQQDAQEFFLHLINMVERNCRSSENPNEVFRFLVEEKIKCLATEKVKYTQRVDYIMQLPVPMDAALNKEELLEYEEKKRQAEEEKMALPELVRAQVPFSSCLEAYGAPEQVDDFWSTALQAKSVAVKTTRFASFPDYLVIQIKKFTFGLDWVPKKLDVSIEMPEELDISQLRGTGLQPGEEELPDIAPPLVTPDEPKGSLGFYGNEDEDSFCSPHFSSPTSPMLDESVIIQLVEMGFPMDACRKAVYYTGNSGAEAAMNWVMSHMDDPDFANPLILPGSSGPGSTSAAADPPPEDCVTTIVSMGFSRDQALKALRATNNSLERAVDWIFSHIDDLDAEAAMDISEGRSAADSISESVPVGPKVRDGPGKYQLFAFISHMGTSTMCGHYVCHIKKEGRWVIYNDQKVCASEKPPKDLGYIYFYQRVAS
SMILES,target or system,assay,system,conditions,scale,endpoint,result
NCCONC(=O)[C@@H]1CC[C@@H]2CN1C(=O)N2OS(=O)(=O)O,,,healthy Chinese male subjects,"intravenous, 2 g",,number of serious TRAE events,0
CCC(=O)N(CCC(c1ccc2c(c1)OCO2)c1ccccc1OC)Cc1ccccc1 (stereo not shown),,,"female athymic nude mouse, blood","i.p., 60 mg/kg twice daily, 14 days, group mean",,TBIL,0.1 mg/dL
NC1(C(=O)N[C@@H](CCO)c2ccc(Cl)cc2)CCN(c2nc[nH]c3nccc2-3)CC1,,,metastatic CRPC patients,"dose not given, any grade, treatment-related, all doses, together with: enzalutamide 160 mg daily",,incidence of Pyrexia,6.7%
O=C(O)CNC(=O)c1ccccc1O,,,human CSF,"concentration not given, mean",,CSF concentration,not detected
O=c1c2ccccc2oc2ccccc12,,,tricaprin-tricaprylin mixture,"75 °C, tricaprin fraction 1.00",,solubility,0.052 mole fraction
Cl.[2H]C([2H])([2H])CC(=O)c1cnc(NC(=O)C2CC2)cc1Nc1cccc(-c2ncn(C([2H])([2H])[2H])n2)c1OC,,geometric mean,human,"100 mg single dose, fasted, liquid",,CL/F,8.9 L/h
COc1cc(NC(C)CCCN)c2ncccc2c1 (stereo not shown),human iPSC-derived cardiomyocytes,"MyBP-C/MYH ratio, plate-normalised SD score",,"concentration not given, primary screen",direction not given,activity score,7.4
COc1ccc2c(=O)n(C)c(-c3ccccc3)nc2c1,,,"Sprague-Dawley rat, male, testis","oral, 30 mg/kg, 0.5 h",,tissue concentration,2.95 ng/mL
O=C1c2ccncc2C(=O)c2c1[nH]c1ccccc21,,,"Sprague-Dawley rat, male, lung","oral, 1 mg/kg, 24 h",,tissue concentration,0.001 ± 0.002 nmol/mg
O=C(O)CCc1cc(O)cc(O)c1,,,human CSF,"concentration not given, mean",,CSF concentration,not detected
COc1ccnc(C(=O)NC(CO)C(=O)O)c1O (racemic),,,"Swiss Lake sand sediment, aerobic dark",20 °C,,DT50 whole system,53.7 days
CO[C@H]1C[C@@H]2CC[C@@H](C)[C@@](O)(O2)C(=O)C(=O)N2CCCC[C@H]2C(=O)O[C@H]([C@H](C)C[C@@H]2CC[C@@H](O)[C@H](OC)C2)CC(=O)[C@H](C)/C=C(\C)[C@@H](O)[C@@H](OC)C(=O)[C@H](C)C[C@H](C)/C=C/C=C/C=C/1C,,,healthy adult horses,"oral, 0.06 mg/kg, 8 h",,rectal temperature,37.7 ± 0.3 °C
COc1cc(C2=CCCCc3c2ccc(OC)c3OC(C)c2ccc([N+](=O)[O-])s2)cc(OC)c1OC (stereo not shown),,"non-enzymatic, no POR",phosphate buffer,"24 h, pH 7.4",,parent drug release,0%
CC(C)(C)c1ccc(O)c(CN(Cc2cc(C(C)(C)C)ccc2O)C2CCC(NC(N)=O)CC2)c1 (stereo not shown),,,"C57BL/6 mice, male, brain","intraperitoneal, 5 mg/kg, single dose",,terminal elimination rate constant,2.69e-05 s⁻¹
Cc1cc(NC2CCN(C(=O)OC3CCN(C(=O)/C=C/CN(C)C)C3)CC2)n2ncc(C(C)C)c2n1 (stereo not shown),,,patients with advanced solid tumours,"dose not given, QD arm, any grade",,patients with Dizziness,12%
CC1(C)OB(/C=C/COCOCC(=O)OCc2ccccc2)OC1(C)C,,"oxidative cleavage releasing alcohol, 1H NMR",,"pH 7.4, together with: H2O2",,yield,98%
O=C(COc1ccc(Cl)cc1)NC12CC(c3nnc([C@H]4C[C@@H](OC(F)(F)F)C4)o3)(C1)C2,,refers to: Tachycardia,"healthy humans, both sexes","oral, 800 mg, single ascending dose",relative to: subjects,treatment-emergent adverse events,16.7%
COc1c(O)cc(C(=O)O)cc1OS(=O)(=O)O,,,human CSF,"concentration not given, mean",,CSF concentration,not detected
CN(C(=O)n1cnc(-c2ccc[n+]([O-])c2)c1)[C@H]1CC[C@H](O)CC1,,,"rat, cerebellum","oral, 10 mg/kg daily for 5 days, 24 h",,tissue concentration,8.2 ± 0.3 ng/g
O=C(O)CCc1nccs1,"Ubiquitin carboxyl-terminal hydrolase 5, ZnF-UBD domain (USP5, Homo sapiens, UniProt P45974)",,,,,Kd,> 1000 µM
Cc1cc(-c2nnc(N)nc2-c2ccc(F)cc2)cc(Cl)n1,,refers to: Diarrhea,"human phase Ia/Ib colorectal cancer, immunotherapy-naive","oral, dose not given",,patients with treatment-related adverse events,8%
Cc1noc(C)c1Cn1cc(N2C(=O)CN(Cc3cccc(O)c3)C2=O)cn1,,,human liver microsomes,"10 µM, 10 min, pH 7.4",,parent remaining,119%
N#Cc1ccc(-c2cnc3ccc(-c4ccc(C(=O)N5CCOCC5)cc4)cn23)cc1,,,healthy volunteers,"oral, 20 mg, fasted, time-averaged",,placebo-corrected heart rate change,0.1 bpm
C[C@@H](O)CCOC(=O)C[C@@H](C)O,,,human,"oral drink, dose not given, 240 min post dose, mean",,systolic blood pressure,115 mmHg
COC(=O)N[C@H](C(=O)N[C@@H](Cc1ccccc1)[C@@H](O)CN(Cc1ccc(-c2ccccn2)cc1)NC(=O)[C@@H](NC(=O)OC)C(C)(C)C)C(C)(C)C,,modified PAMPA Franz cell,phosphate buffer with HPMCAS,"3 h, 500 rpm, 460 nm particles, together with: no BSA",,plateau flux concentration,146 µg/mL
CCc1cc(C(=O)NC)c2nccc(N3CCc4c(cc(Cn5ccnc5)cc4-c4cn(C)nc4C(F)(F)F)C3=O)c2c1,,,Sprague Dawley rat,"oral, 100 mg/kg once daily, day 5, 7-day toxicology study",,body weight,249 ± 4.3 g
C=CC(=O)NC1CCN(c2ncc3ncnc(Nc4ccc(Oc5ccc6c(c5)ncn6C)c(C)c4)c3n2)CC1,,,healthy male humans,"oral, 240 mg",,participants with oropharyngeal pain TEAE,6.3%
CC(C)NCC(O)c1ccc(NS(C)(=O)=O)cc1 (racemic),,,"male Hartley guinea pigs, anaesthetized","intravenous, 3 mg/kg group, baseline before infusion",,heart rate,227 ± 0.8 beats/min
CNc1ccc(-c2nc3ccc(O)cc3s2)cc1 [carbon-11 labelled],,ex vivo biodistribution,"APP/PS1 Alzheimer mice, gut","intravenous, 30 min",,uptake,6.44 ± 1.46 SUV
CNCc1ccc(-c2[nH]c3cc(F)cc4c3c2CCNC4=O)cc1,,,patients,"oral, 360 mg twice daily, all grades",,anaemia incidence,50%
CC/C(=C(\c1ccccc1)c1ccc(OCCN(C)C)cc1)c1ccccc1,,,"male Hartley guinea pigs, anaesthetized","intravenous, 10 mg/kg over 10 min, after infusion",,heart rate,188 ± 0.6 beats/min
O=C(O)CCC(=O)O.[2H]C([2H])([2H])Oc1cc(C)c2[nH]ccc2c1CN1CC[C@@H](C2CC2)C[C@H]1c1ccc(C(=O)O)cc1,,,"human, plasma","125 mg twice daily, day 1, multiple ascending dose, geometric mean",,AUC(0-tau),14400 ng·h/mL
Oc1ccc(/C=C/c2cc(O)cc(O)c2)cc1,,,"rat, azoxymethane-injected, blood at sacrifice",10 mg/kg,,potassium,3.6 mEq/L and 3.7 mEq/L
N#Cc1ccc2c(c1)[C@H]1CCCN(C(=O)c3ccc4[nH]cnc4c3)[C@H]1C2,,,human males,"10 mg, day 15",,SHBG level,40.4 nmol/L
Cn1cc(-c2ccc(-c3cncc(Cl)c3N3CCC4(CCNC4=O)CC3)cc2)cn1,COLO 205,"gene expression, microarray, refers to: DDIT4 mRNA",,"concentration not given, 2 h",relative to: untreated cells,log2 fold change,2.22
COc1ccc([C@@H](O)c2cc(-c3ncnc4cc(N5CCOCC5)ccc34)c(F)cc2Cl)nn1,,,locally advanced rectal cancer patients,"250 mg, together with: capecitabine and radiotherapy",,lymphopenia TEAE incidence,17%
CN1CCN(c2cccc3c2CCN(C(=O)/C=C/c2c(-n4cnnn4)ccc(Cl)c2F)[C@@H]3C(=O)Nc2ccc(C(=O)O)cc2)C(=O)C1,,,healthy human subjects,"intravenous infusion, 25 mg/h, 2 h",,subjects with nausea,0%
Cc1cc(-c2nccc3c2ccn3CC(=O)Nc2ccc(-c3cnccn3)cn2)ccn1,,,human,"15 mg once daily, multiple ascending dose",,subjects with procedural pain,11.1%
COCCOc1cnc2ccn([C@H](C)c3nnc4c(F)cc(-c5cnn(C)c5)cn34)c(=O)c2c1,,,"patients, plasma","oral, 250 mg twice daily, day 28, 500 per day",,Cmax,4570 ng/mL
C[C@@H]1CN(CC(=O)N2CC(C)(C)c3ncc(Cc4ccc(F)cc4)cc32)[C@@H](CN2CCOC[C@H]2C)CN1,,,male cynomolgus monkey,"oral, 15 mg/kg",,oral bioavailability,4 ± 0.87%
CC(C)C[C@H](NC(=O)CNC(=O)c1cc(Cl)ccc1Cl)B(O)O,,refers to: Hyperglycaemia,human newly diagnosed multiple myeloma,"oral, dose not given, maintenance, grade 3, onset cycle 17 or later",,treatment-emergent adverse events,6%
Cc1cc(Nc2cc3ncccc3c(N[C@@H]3C[C@H]4CC[C@@H](C3)N4CCC#N)n2)n[nH]1,,,healthy human,"oral, 300 mg single dose, 2 weeks",,subjects with contact dermatitis,17%
CCN1/C(=C/C(C)=O)Sc2ccc(F)cc21,,,cynomolgus monkey,"oral, 30 mg/kg, 1 h post-dose",,heart rate,106 ± 17 beats/min
O=C(CCCCC(=O)Nc1c(I)cc(I)c(C(=O)O)c1I)Nc1c(I)cc(I)c(C(=O)O)c1I,human iPSC-derived cardiomyocytes,"MyBP-C/MYH ratio, plate-normalised SD score",,"concentration not given, primary screen",direction not given,activity score,5.5
Cc1ccc(C(=O)N(CCCN)C(c2nc3snc(C)c3c(=O)n2Cc2ccccc2)C(C)C)cc1 (stereo not shown),,refers to: Stomatitis,human patients,"intravenous, dose not given, CTCAE grade ≥3, all doses",,patients with adverse events,8%
Cc1cn(-c2cc(NC(=O)c3ccc(C)c(Nc4nccc(-c5cccnc5)n4)c3)cc(C(F)(F)F)c2)cn1,,"population PK model, typical value","human, both sexes, plasma","oral, dose not given",,peripheral volume of distribution (V2),223 L
C[C@@H](Nc1cc(F)cc(F)c1)c1cc(C(=O)N(C)C)cc2c(=O)cc(N3CCOCC3)oc12,,refers to: confusional state,patients with advanced solid tumours,"oral, dose not given, dose expansion phase I",,treatment-related serious adverse events,0%
O=C(NCc1ccc(CNC2CCCCC2)cc1)c1csc2nc[nH]c(=O)c12,,haemolysis,human red blood cells,"1 h, 37 °C",,EC50,> 100 µM
NC(N)=NCCC[C@@H](N)C(=O)N[C@@H](CCCN=C(N)N)C(=O)N1CCC[C@H]1C(=O)N1C[C@H](O)C[C@H]1C(=O)NCC(=O)N[C@@H](Cc1cccs1)C(=O)N[C@@H](CO)C(=O)N1Cc2ccccc2C[C@@H]1C(=O)N1[C@H](C(=O)N[C@@H](CCCN=C(N)N)C(=O)O)C[C@@H]2CCCC[C@@H]21,,popPK full model bootstrap median,human,"subcutaneous, dose not given",,peripheral volume (Vp/F),1.79 L

# Some of these lines once more:
SMILES,target or system,assay,system,conditions,scale,endpoint,result
Cc1cc(-c2nccc3c2ccn3CC(=O)Nc2ccc(-c3cnccn3)cn2)ccn1,,,human,"15 mg once daily, multiple ascending dose",,subjects with procedural pain,11.1%
CNCc1ccc(-c2[nH]c3cc(F)cc4c3c2CCNC4=O)cc1,,,patients,"oral, 360 mg twice daily, all grades",,anaemia incidence,50%
COc1cc(NC(C)CCCN)c2ncccc2c1 (stereo not shown),human iPSC-derived cardiomyocytes,"MyBP-C/MYH ratio, plate-normalised SD score",,"concentration not given, primary screen",direction not given,activity score,7.4
O=C(NCc1ccc(CNC2CCCCC2)cc1)c1csc2nc[nH]c(=O)c12,,haemolysis,human red blood cells,"1 h, 37 °C",,EC50,> 100 µM
N#Cc1ccc2c(c1)[C@H]1CCCN(C(=O)c3ccc4[nH]cnc4c3)[C@H]1C2,,,human males,"10 mg, day 15",,SHBG level,40.4 nmol/L
O=C1c2ccncc2C(=O)c2c1[nH]c1ccccc21,,,"Sprague-Dawley rat, male, lung","oral, 1 mg/kg, 24 h",,tissue concentration,0.001 ± 0.002 nmol/mg
O=C(CCCCC(=O)Nc1c(I)cc(I)c(C(=O)O)c1I)Nc1c(I)cc(I)c(C(=O)O)c1I,human iPSC-derived cardiomyocytes,"MyBP-C/MYH ratio, plate-normalised SD score",,"concentration not given, primary screen",direction not given,activity score,5.5
O=C(O)CCc1nccs1,"Ubiquitin carboxyl-terminal hydrolase 5, ZnF-UBD domain (USP5, Homo sapiens, UniProt P45974)",,,,,Kd,> 1000 µM
